Results collected from several papers.
Each line is one published result; not all experiments were run side by side. Values joined by “and” are separate records of one study, mostly repeats; a detail may differ. ± marks the error that the study gave.

| Compound | assay | test system | conditions | how to read | measurement | value |
| --- | --- | --- | --- | --- | --- | --- |
| CC(C)C[C@H](NC(=O)[C@H](CCCCN)NC(=O)OCC1c2ccccc2-c2ccccc21)C(=O)N[C@H](C(=O)N[C@@H](Cc1ccccc1)C(=O)N[C@@H](Cc1ccccc1)C(=O)N[C@@H](CCCCN)C(=O)NCC(=O)N[C@@H](Cc1ccccc1)C(=O)N[C@@H](C)C(=O)N[C@@H](Cc1c[nH]c2ccccc12)C(=O)N[C@@H](CC(N)=O)C(=O)N[C@H](C(=O)N[C@H]1CSSC[C@@H](C(=O)N[C@@H](Cc2c[nH]cn2)C(=O)N[C@@H](CCCNC(=N)N)C(=O)N[C@@H](CCCNC(=N)N)C(=O)N[C@@H](C)C(=O)N[C@@H](CC(N)=O)C(N)=O)NC(=O)[C@H](C(C)C)NC(=O)[C@H](CCCNC(=N)N)NC(=O)[C@H](C(C)C)NC(=O)CNC(=O)[C@H](CC(N)=O)NC(=O)[C@H](CCCNC(=N)N)NC(=O)[C@H](Cc2ccc(O)cc2)NC(=O)[C@H](C(C)C)NC1=O)C(C)C)C(C)C | – | ICR mice, serum | intraperitoneal, 5 mg/kg, day 5 | – | globulin | 18.69 ± 0.18 g/L |
| CO[C@H]1C[C@@H]2CC[C@@H](C)[C@@](O)(O2)C(=O)C(=O)N2CCCC[C@H]2C(=O)O[C@H]([C@H](C)C[C@@H]2CC[C@@H](OC(=O)NCCOCCOCCOCCOCCOCCOCCOCCOCCC(=O)N3CCc4cc(Cn5nc(-c6ccc7oc(N)nc7c6)c6c(N)ncnc65)ccc4C3)[C@H](OC)C2)C[C@@H](O)[C@H](C)/C=C(\C)[C@@H](O)[C@@H](OC)C(=O)[C@H](C)C[C@H](C)/C=C/C=C/C=C/1C | phase 1 dose escalation | advanced solid tumour patients | intravenous, 10 mg weekly, any grade | – | any TEAE incidence | 100% |
| COc1cc(N2CCC(N3CCN(C)CC3)CC2)ccc1Nc1ncnc(Nc2ccccc2S(=O)(=O)C(C)C)n1 | refers to: Insomnia | Japanese patients with solid tumours | oral, dose not given, all grades | – | treatment-emergent adverse events | 3 number (percent) |
| C=CCNc1c(O)cc2c(O)c1C[C@@H](C)C[C@H](OC)[C@H](O)[C@@H](C)/C=C(\C)[C@H](OC(N)=O)[C@@H](OC)/C=C\C=C(/C)C(=O)N2 | refers to: first-degree AV block | patients with unresectable or metastatic GIST, STS or other tumours | intravenous, 225 mg/m^2 | – | treatment-emergent adverse events | 33% |
| C=CC(=O)N1CC[C@H](n2nc(C#Cc3cc(OC)cc(OC)c3)c3c(N)ncnc32)C1 | – | human patients | oral, dose not given, QD regimen, adverse drug reaction, added: ferric citrate hydrate | – | decreased appetite, grade ≥3 | 100% |
| CN1CC[C@@H](c2c(O)cc(O)c3c(=O)cc(-c4ccc(C(F)(F)F)cc4Cl)oc23)[C@@H]1CO | refers to: Hypotension | AML | oral, 200 mg, intermittent dosing | – | patients with adverse event | 10% |
| O=S(=O)(Nc1ccccc1)c1ccc(NC(=S)Nc2ccccc2)cc1 | – | female mice, liver | oral, 80 mg/kg daily 14 days | relative to: body weight | relative organ weight | 4.63% |
| CCc1ccc(CC/C=C/c2ccc3c(c2)C(=O)CC3)cc1 | – | Sprague-Dawley rat, female, blood | oral, 120 mg/kg/day, 14 days | – | MCH | 19.4 pg |
| CC(=O)c1c(C)c2cnc(Nc3ccc(C4CCN(CCS(C)(=O)=O)CC4)cn3)nc2n(C2CCCC2)c1=O | – | human patients, plasma | oral, 75 mg twice daily, day 21 multiple doses, added: fulvestrant | – | Cmax | 192 ng/mL |
| Cc1cc(C)c(CNC(=O)c2cc(Cl)c3c(c2C)O[C@@](C)([C@H]2CC[C@H](N(C)C)CC2)O3)c(=O)[nH]1 | – | relapsed/refractory NHL patients | dose not given, all TEAEs, safety set | – | grade 5 atrial fibrillation incidence | 0% |
| C[C@]1(CO)Cc2ncn(-c3ccc(C#N)c(Cl)c3)c2C(=O)O1 | – | human | 80 mg multiple doses, fasted | – | subjects with drug-related hyperhidrosis | 0% |
| CN1CCN(S(=O)(=O)c2cc([N+](=O)[O-])ccc2N(CCOS(C)(=O)=O)CCOS(C)(=O)=O)CC1 | – | NOD/SCID mouse, naive, blood | intraperitoneal, 25 mg/kg, week 1 | – | hemoglobin | 150 g/L and 142 g/L and 202 g/L and 118 g/L |
| Clc1ccc(-c2ccccc2)cc1 | – | rat Sprague-Dawley female, serum | inhalation, 35 µg/rat, 24 h | – | serum Glucose | 264 ± 12 mg/dL |
| NC(=O)[C@H]1CCN(c2ncnc(N)c2F)C[C@@H]1N1CCC[C@@H](Nc2cc(Cl)cc(C(F)(F)F)c2)C1=O | – | B-cell malignancy patients | oral, 82 mg twice daily, dose | – | grade ≥3 platelet decrease | 14% |
